Measured values collected from several papers.
Lines come from different studies, so protocols differ. ± marks the error that the study gave.

SMILES | system | conditions | Cmax
Cc1cc(Nc2cc3ncccc3c(N[C@@H]3C[C@H]4CC[C@@H](C3)N4CCC#N)n2)n[nH]1 | beagle dog, male, plasma | oral, 10 mg/kg/day, last day of 4 weeks | 8.11 ng/mL
COc1cccc(-c2n[nH]c(SCc3ccccn3)n2)c1OC | Sprague-Dawley rat, both sexes, plasma | oral, diet, 10 mg/kg/day, day 7 | 276 ng/mL
C#C[C@]1(CO)O[C@@H](n2cnc3c(N)nc(F)nc32)C[C@@H]1O | human, plasma | oral, 5 mg, single dose, fasted | 147 nM
CCCC[C@H](NC(C)=O)C(=O)N[C@H]1CCC(=O)NC[C@@H](C(=O)N[C@@H](Cc2c[nH]c3ccccc23)C(N)=O)NC(=O)[C@H](CCCNC(=N)N)NC(=O)[C@@H](Cc2ccccc2)NC(=O)[C@H](Cc2c[nH]cn2)NC1=O | beagle dog, female, plasma | subcutaneous, 1.5 mg/kg daily, day 1 | 106 ng/mL
O=c1[nH]c(=O)c(Cc2cccc(C(F)(F)F)c2)c([C@H]2CC[C@H](c3ccccc3)CC2)[nH]1 | human, plasma | oral, 450 mg once daily, day 7, geometric mean | 523 ng/mL
CC1=C2C[C@H]3[C@@H](CC[C@@H]4C[C@H](NS(C)(=O)=O)CC[C@@]43C)[C@@H]2CC[C@@]2(C1)O[C@@H]1C[C@H](C)CN[C@H]1[C@H]2C | patients, plasma | oral, 130 mg single, day -7, cycle 1 | 59.9 ng/mL
O=C1N=C(N2CCOCC2)CN1c1ccc(Cl)cc1 | beagle dog, both sexes, plasma | oral, 30 mg/kg, tablets, fasted, day 5 | 14900 ng/mL
CNCc1ccc(-c2[nH]c3cc(F)cc4c3c2CCNC4=O)cc1 | human, fed high-fat meal, plasma | oral, 600 mg, single dose, median | 746 ng/mL
Cc1nc2cccc(OCC(C)(C)C(=O)NC(C)C)c2c(N)c1C(=O)O | female Sprague-Dawley rat, plasma | dietary, 30 mg/kg/day, day 7 | 7.47 ng/mL
CS(=O)(=O)Nc1ccc(C(=O)O[C@@H](Cc2c(Cl)c[n+]([O-])cc2Cl)c2ccc(OC(F)F)c(OCC3CC3)c2)cc1OCC1CC1 | human, plasma | inhaled, 1200 µg once daily, day 7, single-dose dry powder inhaler | 1.69 ng/mL
CN1CCN(CCOc2cc(OC3CCOCC3)c3c(Nc4c(Cl)ccc5c4OCO5)ncnc3c2)CC1 | beagle dog, both sexes | oral, 5 mg/kg/day, week 39, repeated daily dosing | 389 ng/mL
CNC(=O)c1ccc(-c2cnn3ccc(C(=O)N(CC(=O)O)c4ccc(Cl)cc4)cc23)cc1 | female C57BL/6 mouse, plasma | oral, 10 mg/kg | 50 nM
CCCOc1ccc([C@H]2CNC(=O)N2c2ccc3[nH]cnc3c2)cc1 | human, plasma | oral, 800 mg, multiple doses, twice daily, fasted | 6450 ng/mL
O=C(CCCCCCC(=O)Nc1ccccc1)NO | patients, serum | oral, 1000 mg, cycle 1, added: flavopiridol | 12700 nM
Cn1c(C(F)(F)F)cc(=O)n(-c2cc(Oc3cccnc3OCC(=O)O)c(Cl)cc2F)c1=O | beagle dog, male, plasma | oral capsule, 1000 mg/kg/day epyrifenacil, week 13, 90-day study | 6760 ng/mL
CC(C)[C@H](N)C(=O)NCCCS(=O)(=O)O | human, both sexes, plasma | oral, 300 mg capsule | 8150 ± 3610 ng/mL

A few entries again:
SMILES | system | conditions | Cmax
Cc1cc(Nc2cc3ncccc3c(N[C@@H]3C[C@H]4CC[C@@H](C3)N4CCC#N)n2)n[nH]1 | beagle dog, male, plasma | oral, 10 mg/kg/day, last day of 4 weeks | 8.11 ng/mL
COc1cccc(-c2n[nH]c(SCc3ccccn3)n2)c1OC | Sprague-Dawley rat, both sexes, plasma | oral, diet, 10 mg/kg/day, day 7 | 276 ng/mL
